# Experimental data gathered from unrelated publications.
# Parts stem from different laboratories: compare values within a part only. Positions count from the first letter of the parent shown.
# Sequence of UniProt P51668 (whole entry, looked up): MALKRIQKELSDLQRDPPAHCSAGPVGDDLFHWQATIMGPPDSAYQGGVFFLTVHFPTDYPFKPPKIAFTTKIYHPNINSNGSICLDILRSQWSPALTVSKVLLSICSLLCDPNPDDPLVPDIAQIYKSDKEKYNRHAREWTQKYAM
# Sequence of UniProt Q9Y2X8 (whole entry, looked up): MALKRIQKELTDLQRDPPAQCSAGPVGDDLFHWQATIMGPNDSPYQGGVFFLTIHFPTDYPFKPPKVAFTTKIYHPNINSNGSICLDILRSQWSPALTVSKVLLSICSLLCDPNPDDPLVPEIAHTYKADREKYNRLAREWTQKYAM
# Sequence of UniProt Q8N2K1 (whole entry, looked up): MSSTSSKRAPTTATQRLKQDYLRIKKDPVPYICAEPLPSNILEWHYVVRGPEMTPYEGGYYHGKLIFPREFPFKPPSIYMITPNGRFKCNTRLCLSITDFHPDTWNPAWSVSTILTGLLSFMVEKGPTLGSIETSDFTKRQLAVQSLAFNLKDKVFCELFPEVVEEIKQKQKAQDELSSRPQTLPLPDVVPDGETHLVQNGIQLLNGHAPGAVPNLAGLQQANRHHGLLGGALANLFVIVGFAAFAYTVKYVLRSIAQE

# Block 1
# Target: RING finger protein unkempt homolog, zinc fingers 1-6, GST-SBP tag (UNK, Homo sapiens, UniProt Q9C0B0, residues 30-357)
# Method: RNA Bind-n-Seq
# Molecule type: RNA
# Sample: in vitro
# Tested at: not given
# Notes: RNA with constant flanks, human and mouse sites, ends assumed
# Reference: input RNA pool
# Direction: higher = stronger binding
# Residues (chain): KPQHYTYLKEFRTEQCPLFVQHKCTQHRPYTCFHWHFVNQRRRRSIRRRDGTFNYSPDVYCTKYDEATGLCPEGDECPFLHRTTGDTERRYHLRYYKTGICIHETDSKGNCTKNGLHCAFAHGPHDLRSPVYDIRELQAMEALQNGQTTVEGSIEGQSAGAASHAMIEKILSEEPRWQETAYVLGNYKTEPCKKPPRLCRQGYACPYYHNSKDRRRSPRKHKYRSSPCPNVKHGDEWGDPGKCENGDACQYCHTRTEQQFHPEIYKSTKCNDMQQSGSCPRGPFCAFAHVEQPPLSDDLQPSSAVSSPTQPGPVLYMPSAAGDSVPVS
Sequence,bound/input enrichment [ratio]
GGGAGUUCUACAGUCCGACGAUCACCUCGUUUCUUUAUCUUCUUUUUUAUUUUCUUUCUUUUUCUUCGUUUUUUUUUUUUUUCUAGUGUUGUUACCCACGCCAUUUUACGUCUCCUUCACUGAAGGGCUAGAGUUUUAACUUUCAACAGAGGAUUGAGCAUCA,28.1
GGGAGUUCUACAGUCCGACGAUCCAUGUAUUUGAGUGCAACUUAGAGAGCAGUGUGGAGAGCAUCAUCUCACCAAAGGUGAAGAUGGCGCUGCGGACGUCAGGACACCUUCUCCUGGGAGUAGUCCGCAUCUAUCACAGGAAACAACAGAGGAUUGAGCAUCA,0.184
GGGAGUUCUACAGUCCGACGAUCGAGUGCCUUGAGGUAUACACAUGAAAACCAGGUUUCAAUGGUUGACAGAGUAGAGUAUUUAUACCAAGAGGGUAGAGGCGAAAGAAUUGGGUGUUCAAAGCCAGUCUUGACUUGAAGCAACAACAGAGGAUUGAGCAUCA,0.635
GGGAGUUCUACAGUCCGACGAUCAAGCUGCUGUGCGGCCUGCUGGCCGAGCGCCUGCGCAUCAGCCCGGACAGGGUCUACAUCAACUAUUACGACAUGAACGCGGCCAAUGUGGGCUGGAACAACUCCACCUUCGCCUAAGAGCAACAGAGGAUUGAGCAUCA,0.126
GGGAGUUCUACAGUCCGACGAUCCUUCUCAUGACCAACUGUAUCAAGAAUGAUCUUAAUCAUAGCACGCAAUUCGUACAGGGGUUAGCACUUUGUACCCUCGGCUGCAUGGGCUCCUCAGAGAUGUGCAGAGAUCUUGCAGGACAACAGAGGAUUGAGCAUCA,0.238
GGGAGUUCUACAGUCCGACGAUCCUUGUUUAAAGCAAAACAAGACCUUGAAAGGUCAAUCAUAUUAAAGCUGGUUUGAUUAUUAAUAGUUAUCUUUUAGGAAGAAGCUUUUUUCCCUAUGUAAGAUGUCAUACUGCAGAUUUACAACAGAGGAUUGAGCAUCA,7.43
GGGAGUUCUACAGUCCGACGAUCUAUUUCUUAUACUGUACAUGGUACAUAAAGUGCUUUCAAGAGGCUAAAACAAAACUUUUCUAGCAAAUAAUUUAAGUUAAAUGUAAAAUAUCCUAUAAAACCUAGAAUUGGUCAAAAGCACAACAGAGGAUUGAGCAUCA,2.86
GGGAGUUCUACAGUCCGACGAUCCCAGACUUUCUUUUCCCUGAAGAAGCUCUGAAGGUUUCAGCUGUUUCUGUAUUGGCUGCCCAGAAGACUGGGACACCAACAGUGUCCUCUAAUUCUCACUCACAUAGCGAGAAAUCUAGUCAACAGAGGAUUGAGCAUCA,0.168
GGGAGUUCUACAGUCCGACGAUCCUGAAGAAGACGGCCAGCCUGGGCUUCUGUGUCACCUACGUCUUCUUCAUCACCAGCCUCAUCUACCCCGCCAUCUGCACCAACAUCGAGUCCCUCAACAAGGGUUCGGGCUCACUGUGGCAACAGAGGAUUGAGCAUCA,0.0914
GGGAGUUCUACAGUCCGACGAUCAACCUUCAACAGUAGAAGUUCUAGAAAAUAUAGAUAAGGAAAUUCAAGCAUUGGAAGAAUUUAGAGAAAAAAAUCAGAGAUUGCAAAAAUUAUGGGUUGGAAGAUUAAUUAUCUAUUCUUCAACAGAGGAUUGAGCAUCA,22.8
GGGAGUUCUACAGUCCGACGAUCUUCUCCGGUGGAGAAACUGCAGAGGACUGGUGGGCGGGGCUCCCCAGCCAUCACCAUCCUGUGUACAAUGGCUGUAGACUUGUAUAUGGCUCCUUUAAUAUUGUAAAGAUGCUGAUGUACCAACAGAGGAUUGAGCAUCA,20.7

# Block 2
# Target: ABI1, truncated, D143A, DHFR fusion (Arabidopsis thaliana)
# Method: DHFR PCA, deep sequencing
# Sample: yeast
# Notes: methotrexate growth selection, single substitutions
# Added: (+)-ABA 0.032 µM
# Reference: wild-type fitted maximum
# Direction: higher = stronger binding
# Parent: PYL1, truncated, DHFR fusion (Arabidopsis thaliana); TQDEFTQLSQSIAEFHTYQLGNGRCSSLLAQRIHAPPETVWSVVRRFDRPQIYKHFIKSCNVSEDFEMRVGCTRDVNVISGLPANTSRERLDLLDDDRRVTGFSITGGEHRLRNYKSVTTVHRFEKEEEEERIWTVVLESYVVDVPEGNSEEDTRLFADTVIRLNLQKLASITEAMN
Change,relative binding score [%]
I33H,1.75
F157H,8.95
V118D,-1.7
R45K,-0.854
E89N,-1.09
G21Q,24
Q51E,9.12
W41P,-1.78
N114H,6.08
R69D,2.94

# Block 3
# Sequence: B1 (RNF11 RING domain)
# Method: yeast two-hybrid
# Sample: yeast
# Notes: mostly zero background
# Reference: not given
# Direction: higher = stronger interaction
# B1: RNF11 RING domain (UniProt Q9Y3C5); chain RDGSEKKIRECVICMMDFVYGDPIRFLPCMHIYHLDCIDDWLMRSFTCPSCMEPVDAALLSS
target,lacZ reporter activity
UBE2J2 UBC core domain (UniProt Q8N2K1),0
UBE2D1 UBC core domain (UniProt P51668),11000
UBE2D4 UBC core domain (UniProt Q9Y2X8),17100

# Block 4
# Target: Ras GTPase-activating protein-binding protein 1, C-terminal RGG region (G3BP1, Homo sapiens, UniProt Q13283)
# Sequence of UniProt Q13283 (whole entry, looked up): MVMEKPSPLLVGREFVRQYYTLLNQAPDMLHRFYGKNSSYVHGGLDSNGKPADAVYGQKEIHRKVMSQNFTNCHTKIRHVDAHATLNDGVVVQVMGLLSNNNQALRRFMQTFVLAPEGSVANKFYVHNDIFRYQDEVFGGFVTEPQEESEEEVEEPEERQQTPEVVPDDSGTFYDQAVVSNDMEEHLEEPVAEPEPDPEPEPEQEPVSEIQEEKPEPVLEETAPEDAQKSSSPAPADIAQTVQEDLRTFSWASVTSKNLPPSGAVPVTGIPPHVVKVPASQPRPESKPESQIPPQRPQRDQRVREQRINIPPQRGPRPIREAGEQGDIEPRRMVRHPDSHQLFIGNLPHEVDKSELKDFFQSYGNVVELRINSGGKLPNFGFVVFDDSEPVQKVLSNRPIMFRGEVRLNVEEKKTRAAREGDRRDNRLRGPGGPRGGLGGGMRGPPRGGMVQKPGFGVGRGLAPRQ
# Method: RNA Bind-n-Seq
# Molecule type: RNA
# Sample: in vitro
# Tested at: 1 µM
# Notes: whole 134-nt RNA, ends assumed
# Added: 150 mM KCl
# Reference: input library
# Direction: higher = stronger binding
Sequence,log2 enrichment
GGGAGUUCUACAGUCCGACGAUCCCUCAAGUCCUGUGCUACACAUCGUAUGUACCGAAUCGGAAAGGAAAGGUGGAAAGUAUUAUGUUACGCCGUUCGGAUCUGCACUUCCAGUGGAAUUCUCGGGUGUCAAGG,-0.875
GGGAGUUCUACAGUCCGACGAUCACCAUGCAGGUGGGCAUCUUUGGGAAGUGGGGCAAGGGGGGGAUAGGGAGGGGGGAAACACUUUGGGAACAGGUGGUCCCAGGUCGUUUCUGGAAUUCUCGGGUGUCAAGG,-1.37
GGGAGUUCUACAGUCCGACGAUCCAAUGGGAAUGGACCAAAGAGUUUCAGGGAAACUCCAGUAUAUUCCAGAGUCAGAUCUAAGCUCCAGGCACGCCUGAAGAUGUGUUGCUAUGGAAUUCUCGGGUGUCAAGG,0.394
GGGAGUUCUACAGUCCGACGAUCUGGGAGGUGGAUUUUGUUUAUUUUUUUAGCUCAUUUCCAGGGGUGGGAAUUUUUUUUUAAUAUGUGUCAUGAAUAAAUUUGUUUUUGAAAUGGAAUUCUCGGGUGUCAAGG,2.72
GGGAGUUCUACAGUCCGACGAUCAAGUCCUGUGCUACACAUCGUAUGUACCGAAUCGGGGAAAGGGGAAAGGGGAAAGGAAAGUAUUAUGUUACGCCGUUCGGAUCUGCACUUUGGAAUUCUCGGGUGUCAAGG,-0.413
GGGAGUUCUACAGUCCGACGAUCACCAUGCAGGUGGGCAUCUUUGGGAAGUGGGGCAAGGGGGGGAUAGGGAGGGGGGUAACACUUUGGGAACAGGUGGUCCCUGGUCGUUUCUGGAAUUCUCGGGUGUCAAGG,1.36
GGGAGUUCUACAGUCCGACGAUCACCAUGCAGGUGGGCAUCUUUGGGAAGUGGGGCAAGGGGGGGAUAGGGAGGGGUGUAACACUUUGGGAACAGGUGGUCCCAGGUCGUUUCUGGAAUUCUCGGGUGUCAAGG,2.23
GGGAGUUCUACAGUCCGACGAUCCACAGACAACACGCACCCACACAGACACAGAGGGAAGGGGUUGGGAUGGGGACAAAAUGCACAGCAGGGCGGGGUAGGACCCCAGCCCCUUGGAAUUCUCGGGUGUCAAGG,-0.0367
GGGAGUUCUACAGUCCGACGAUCUGUGCUACACAUCGUAUGUACCGAAUCGGGAAAAAAAGGGGAAAAAAAGGGAAAAAAAGGGGAAAGUAUUAUGUUACGCCGUUCGGAUCUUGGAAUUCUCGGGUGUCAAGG,-0.521
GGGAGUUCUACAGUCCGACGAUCCAAGUCCUGUGCUACACAUCGUAUGUACCGAAUCGGGGAAAGGGAAAGGAAAGGGGAAAGUAUUAUGUUACGCCGUUCGGAUCUGCACUUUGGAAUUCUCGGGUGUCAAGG,0.179
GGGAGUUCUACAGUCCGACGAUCGUCCUGUGCUACACAUCGUAUGUACCGAAUCGGGGUUUUUGGUUUUUGGGGUUUUUGGGAAAGUAUUAUGUUACGCCGUUCGGAUCUGCAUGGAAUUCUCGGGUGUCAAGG,-0.953

# Some of these lines once more (block 4):
Sequence,log2 enrichment
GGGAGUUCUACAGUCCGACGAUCACCAUGCAGGUGGGCAUCUUUGGGAAGUGGGGCAAGGGGGGGAUAGGGAGGGGUGUAACACUUUGGGAACAGGUGGUCCCAGGUCGUUUCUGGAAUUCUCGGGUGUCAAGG,2.23
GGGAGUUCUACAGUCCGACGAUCCCUCAAGUCCUGUGCUACACAUCGUAUGUACCGAAUCGGAAAGGAAAGGUGGAAAGUAUUAUGUUACGCCGUUCGGAUCUGCACUUCCAGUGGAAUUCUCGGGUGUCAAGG,-0.875
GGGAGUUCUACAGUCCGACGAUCUGGGAGGUGGAUUUUGUUUAUUUUUUUAGCUCAUUUCCAGGGGUGGGAAUUUUUUUUUAAUAUGUGUCAUGAAUAAAUUUGUUUUUGAAAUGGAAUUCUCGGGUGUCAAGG,2.72
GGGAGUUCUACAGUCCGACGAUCGUCCUGUGCUACACAUCGUAUGUACCGAAUCGGGGUUUUUGGUUUUUGGGGUUUUUGGGAAAGUAUUAUGUUACGCCGUUCGGAUCUGCAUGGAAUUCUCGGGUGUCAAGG,-0.953
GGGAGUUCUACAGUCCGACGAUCCAAUGGGAAUGGACCAAAGAGUUUCAGGGAAACUCCAGUAUAUUCCAGAGUCAGAUCUAAGCUCCAGGCACGCCUGAAGAUGUGUUGCUAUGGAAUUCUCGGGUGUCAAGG,0.394
